Values quoted from earlier work, collected from citations in different studies.
Compare with care: the assays were run in different laboratories. Numbers after ± are the reported error. In brackets after ≈: the same amount, converted by molar mass.

SMILES	cell line	test	conditions	measurement	value
CC(=O)O[C@H]1C(=O)[C@@]2(C)[C@H]([C@H](OC(=O)c3ccccc3)[C@]3(O)C[C@H](OC(=O)[C@H](O)[C@@H](NC(=O)c4ccccc4)c4ccccc4)C(C)=C1C3(C)C)[C@]1(OC(C)=O)CO[C@@H]1C[C@@H]2O	MCF7/PTX (paclitaxel-resistant)	cell viability		IC50	2.29 ± 0.125 µM
O=C1N[C@@H]2CCCC[C@H]2N[C@@H]1c1c[nH]c2ncccc12	MRC-5 fibroblasts	cytotoxicity		IC50	> 100 µM
[Cu+2].[O-][Cl+3]([O-])([O-])[O-].[O-][Cl+3]([O-])([O-])[O-]	MCF7	cell growth		IC50	6.4 ± 0.5 µM
O=C1[O][Pt]2([NH][C@@H]3CCCC[C@H]3[NH]2)[O]C1=O	NCI60 panel		mean over panel	GI50	2.8 µM
N.N.[Cl][Pt][Cl]	HeLa			IC50	13.3 ± 3.84 µM
C/C=C/C[C@H](C)[C@@H](OC)[C@@H](C)[C@H](O)C[C@H]1OC(=O)C=C[C@H]1CC	A2780 ovarian cancer	cell growth		MIC	0.026 µM (≈ 8.44 ng/mL)
CCNC/C=C\CNCCCCNCCCCNC/C=C\CNCC	human prostate cancer cells			IC50	0.14 to 0.5 µM
COc1ccc([C@@H]2CC(=O)c3c(cc(O)c(CC=C(C)C)c3O)O2)cc1	HeLa	cell growth		IC50	~10 µM
O=C([O-])CN1CCN(CC(=O)[O-])CCN(CC(=O)NCC2CCC(C(=O)N[C@@H](Cc3ccc4ccccc4c3)C(=O)NCCCC[C@H](NC(=O)N[C@@H](CCC(=O)O)C(=O)O)C(=O)O)CC2)CCN(CC(=O)[O-])CC1.[177Lu+3] (some centres unmarked)	LNCaP	gamma counting	3 h	internalized fraction	75%
CC=CCC(C)C(O)C(C)C(O)CC1OC(=O)C=CC1CC (centres unmarked)	A2780	cell growth		GI50	0.0296 µM
N#CC(=Cc1ccc(O)cc1)C(=O)O	human neutrophils	anion exchange, competitive inhibitor	with: Cl-	Ki	~9000 µM
C[C@@H]1CC[C@H]2[C@@H](C)C(=O)O[C@@H]3O[C@@]4(C)CC[C@@H]1[C@]32OO4	CCRF-CEM	cell viability		IC50	36.9 ± 6.9 µM
CP(C)(=O)c1ccc(Nc2nc(C3CCCC3)nc3c2ncn3CCc2cccc(O)c2)cc1	Mo7e	cell growth		GI50	0.108 µM
COc1ccc(C(c2ccc(OC)cc2)C(Cl)(Cl)Cl)cc1	MCF7	cell proliferation	10% FBS	EC50	1.04 µM

Repeated from above:
SMILES	cell line	test	conditions	measurement	value
N.N.[Cl][Pt][Cl]	HeLa			IC50	13.3 ± 3.84 µM
CC=CCC(C)C(O)C(C)C(O)CC1OC(=O)C=CC1CC (centres unmarked)	A2780	cell growth		GI50	0.0296 µM
